# Measured values from different studies.
# Parts stem from different laboratories: compare values within a part only.

# Set 1
# Target: Phosphate system positive regulatory protein PHO4, full length, GST-tagged (PHO4, Saccharomyces cerevisiae, UniProt P07270, residues 1-312)
# Method: competition protein-binding microarray
# Form: double-stranded DNA, one strand shown
# Matrix: in vitro
# Concentration: 2 µM
# Setting: whole 60-bp probe, lowest competitor level
# With: Cbf1 competitor, 0.05 µM
# Direction: higher = stronger binding
# All sequences stand within: … GTCTTGATTCGCTTGACGCTGCTG
# Construct (chain): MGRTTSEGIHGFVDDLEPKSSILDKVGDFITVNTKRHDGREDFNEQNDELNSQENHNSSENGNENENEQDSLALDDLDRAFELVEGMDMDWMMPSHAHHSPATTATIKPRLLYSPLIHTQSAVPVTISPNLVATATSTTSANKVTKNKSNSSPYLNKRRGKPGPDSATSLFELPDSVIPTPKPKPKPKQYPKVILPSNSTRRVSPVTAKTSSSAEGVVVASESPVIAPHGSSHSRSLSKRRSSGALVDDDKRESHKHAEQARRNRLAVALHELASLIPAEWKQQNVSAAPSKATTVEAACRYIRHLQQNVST
Oligonucleotide,fluorescence intensity
TCTAACTGGGCCCTTCACGTTTCTGACAATAGTTCT,9460 a.u.
GTTTCACTTGCGTACTTCGTGCCAGGCTTGATGGCT,6320 a.u.
CTAACGAAGGTTTGTAATGTGGGTGACAAGCCAAGT,4320 a.u.
TGCGCAACAACTTTTCACGTGCTATTATGTCTAGAA,13500 a.u.
TCATACATGTCATTGCACATGAGCATTGTAACCGGT,6820 a.u.
AAAGCGGTAATTTTTCACGTGCCTTCACATATCTAT,16600 a.u.
TGGGGTGTCTGCCATCACGCTTTCCATTTGCACTGT,6670 a.u.
CCAGCAGGAAATAGCCCCGTGCTTTTCCATCCTGAC,10200 a.u.
AAAGCGGTAATTTGCTTAGTGGGTGCAGATATCTAT,3740 a.u.
CATACCCAACCTTACCACGTGTTTTAAGATATTTGT,19100 a.u.
CAACGATTGATTACGCAGATGACTAACCGCCAGTCA,2640 a.u.
CGGGCGTATTGAGCCCTCGTGCTGTCTGGATGCACC,13000 a.u.
AAAGCGGTAATTTGTCACTGCACTTCACATATCTAT,4020 a.u.
CAGGCGTCCACCGCTCCCGTGTCGGTGTAACCAAGG,4990 a.u.
CAACGAGCTCTTTGCCACGTATCAACTGGAGAAGAG,6230 a.u.
CTTCTGTAAATTTTTCACGTGATTTGACGCGCCCCG,11900 a.u.
CGTCCTAGTGATTGGTTCGTGGGTGCCATGAGGAAG,9480 a.u.
GCTCCCTCAGCCCCGGGCGTGCTTTGACGCTATTCC,6940 a.u.
TTAATATGGTGGAGTCAGCTGAGAAGTTTTTTCAAT,3110 a.u.
CATACCCAACCTTGATTCGTGGGTGAAGATATTTGT,6400 a.u.
AGGCAGCAATATTGGCGTGTGCCGCTGAATACATTC,6990 a.u.
CTTTCCCGATCTTGCTTAGTGGGTGTAGCACATTTG,4100 a.u.
GCGCGACTTGCAAGAAAAGGCATAATTGTGGCGAGG,4020 a.u.

# Set 2
# Target: Protein C-ets-1 (ETS1, Homo sapiens, UniProt P14921, residues 1-441, K379A, full length assumed)
# Method: protein-binding microarray
# Form: double-stranded DNA, one strand shown
# Matrix: in vitro
# Concentration: not given
# Setting: k-mer, scored over probes, only values ≥0.25
# Direction: higher = stronger binding
# Residues (chain): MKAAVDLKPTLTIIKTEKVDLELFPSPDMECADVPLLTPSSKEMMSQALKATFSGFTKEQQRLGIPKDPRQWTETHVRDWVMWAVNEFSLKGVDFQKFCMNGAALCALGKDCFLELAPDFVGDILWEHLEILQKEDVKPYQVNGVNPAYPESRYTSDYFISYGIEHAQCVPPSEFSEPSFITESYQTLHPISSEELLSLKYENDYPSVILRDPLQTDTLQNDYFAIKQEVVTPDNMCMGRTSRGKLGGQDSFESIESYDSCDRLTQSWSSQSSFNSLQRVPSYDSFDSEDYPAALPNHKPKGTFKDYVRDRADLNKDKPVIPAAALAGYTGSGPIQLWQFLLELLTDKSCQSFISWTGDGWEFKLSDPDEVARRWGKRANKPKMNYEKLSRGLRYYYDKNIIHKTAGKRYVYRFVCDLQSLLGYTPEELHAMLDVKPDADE
Oligonucleotide,E-score
CAGACACC,0.256
AGCGCCGG,0.294
ACGATACA,0.272
ATGGTTAG,0.262
GCGGGGAA,0.278
CCCGCCCC,0.458
CCCACCCG,0.369
GTCATGAC,0.306
ACCGGTTC,0.306
ACCGACGT,0.382
ACCCGGGA,0.304
GCCGCGGC,0.257
CGGTTGTA,0.268
CCCCACCC,0.314
TCCCGACA,0.271
TTCCGGAA,0.447
CGCATTTC,0.278
CCCCTCCC,0.257
ATACCGTC,0.278
CAACCGAC,0.373
CGGTATAG,0.304
CCGCCCGC,0.323
TCCGGAAA,0.341

# Set 3
# Target: RING finger protein unkempt homolog, zinc fingers 1-6, GST-SBP tag (UNK, Homo sapiens, UniProt Q9C0B0, residues 30-357)
# Method: RNA Bind-n-Seq
# Form: RNA
# Matrix: in vitro
# Concentration: not given
# Setting: RNA with constant flanks, human and mouse sites, ends assumed
# Reference: input RNA pool
# Direction: higher = stronger binding
# All sequences stand within: GGGAGUUCUACAGUCCGACGAUC … CAACAGAGGAUUGAGCAUCA
# Target sequence (chain): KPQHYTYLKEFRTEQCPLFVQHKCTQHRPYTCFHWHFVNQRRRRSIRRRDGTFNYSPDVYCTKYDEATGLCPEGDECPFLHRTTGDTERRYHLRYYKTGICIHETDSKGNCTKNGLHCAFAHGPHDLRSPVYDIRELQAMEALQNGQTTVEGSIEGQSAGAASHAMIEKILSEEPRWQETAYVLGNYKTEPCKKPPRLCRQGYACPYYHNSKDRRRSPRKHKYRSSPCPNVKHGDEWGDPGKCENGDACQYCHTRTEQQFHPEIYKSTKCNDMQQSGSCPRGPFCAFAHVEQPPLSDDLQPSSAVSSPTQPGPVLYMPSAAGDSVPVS
Oligonucleotide,bound/input enrichment
UCUCCGUCGAAUGCAGCAGGUGGCUACCCAGCUGGGCAUGUUCAGCCCGAUCGCCCUCCAGUUUGGAGCCUACAGCGCCUACACCCAGGCCCUGAUGCAGCAGCAGGCGGCCCUGGUAGC,0.215 ratio
CUUGAGCCUAACAAGUCCAUCUUCAAGCAAAUGAAAUCUCAUCCACCAUACACCAUGUGCUUUAGAGUGAAAUUCUACCCACAUGAACCCUUGAAGAUUAAAGAAGAGCUCACAAGGUAC,0.204 ratio
UCUCGCUCUCCUUUUUUUUUUCUUUUUUUCUUUUUCUUUUUUUUUUCUUUUUUUAAAUACUAGCAACUUUCAUCCUUUGGAACUUGUGCUGAAAAAAGAAGAGUCAGCAAAUACUACUGA,0.915 ratio
GUCCUUAUUGAUCCUUUUUCUUGGCGUUACCAUUUUUGAAGCAAAGUUAACCUAGCUUUCUAGCUUGAGCUUUCUUUUUGGCCAUCUUUUAAAACUUUUUUUUUUUUUUUUGAUCUAUAA,3.65 ratio
AGUGGCCUGGACUCACACUACCAAACAGAGCCGCACGUUCUGGCUGGCACCGCUAAUCCGACGGUUGCCAAAAGAAACAUGACUUUGCCUGGCGAGAACGGUCAAAACUUGGUGGAAUGG,0.102 ratio
GAAGCUGACAAGUGGAGCACGCUGAGUGCUGAUAUUGAGGAGACCUUCAAAACUCAAGACAUAGCUGUGAUUUCUGCAAAGCUGACCGGCAUGCAGAACAGCUUGAUGAUGCUUGUGGAU,0.13 ratio
AGCCACAAAAUAUUUAAUGUGUUGUGCCUUCAUGAUGUAACAGAACAUUCUCCAGGUAGGUAGUUGGGGAAAAUAAAGGGAUAAAUCUCUAAUUAUUGCUGUUUAACUGUUUGUUAUCAU,0.418 ratio
CUCAUGCAAAAGGAUUUUGUAUCCCCGGCCUACUUGAAGAAGUGGUCAGCUAAAGGAAUCCAGGUUGUUGGUUGGACUGUUAAUACCUUUGAUGAAAAGAGUUACUACGAAUCCCAUCUU,0.0773 ratio
AUGAUUGACGUGCAGAACAGAGCCUACUUCCAGCAGCACGGCUGUACCUUCACCGCCGUCAUCCCUACCAAUGUCUUUGGGCCUUAUGACAACUUCAACAUCGAAGAUGGCCACGUGCUA,0.0737 ratio
GAGAAUUUAAAUUGAUUCUCAGUUCUGUCAUCAUUAGUUUCUUUUACAUUAAUAUGUCCAUAGUUUGCAUGUUCCCUGGACAGCUUUGUCUUAAUUUCCAUGAGUAGAACUGUGACUUCU,49.8 ratio
UUUUUCUUGUGUAUACAAGUAUAUAUUUUUGUUUGACGCGGACUAAAUCAUUUUCAUUUAAUUUCCGGUAAACAAAACCCACGCGAAUGGGCACUUGUUCCCGAUCAUAAUAAAAAUGGA,0.35 ratio

# Set 4
# Target: RNA binding protein fox-1 homolog 2, RRM domain, GST-SBP tag (RBFOX2, Homo sapiens, UniProt O43251-10, residues 100-194)
# Method: RNA Bind-n-Seq
# Form: RNA
# Matrix: in vitro
# Concentration: 365 nM
# Setting: natural RNA segment, single round, ends assumed
# Reference: no-protein control
# Direction: higher = stronger binding
# All sequences stand within: GGGAGUUCUACAGUCCGACGAUC … UGGAAUUCUCGGGUGCCAA
# Target sequence (chain): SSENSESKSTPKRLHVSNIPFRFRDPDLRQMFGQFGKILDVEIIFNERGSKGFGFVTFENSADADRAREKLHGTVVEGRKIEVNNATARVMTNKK
Oligonucleotide,RBNS enrichment (R)
GUUCUGGAGCCUCAUCUGGCUGGGAUCUCCAAGGGGCCUCCUGGAUUCAGUCCCCACUGGCCCUGAGCACGACAGCCCUUCUUACCCUCCCAGGAAUGCCGUGAAAGGAG,2.73
CUAUAUGCAAGUUUUGUGAAACCUGCCUCCUUCCCGUGCAAUGUGUCCCUCCUCACAAGUGCUUAGUUUCUGUUAACUAGAAGUAUCAUUCUUGGGUGGAAAUAGGUCUC,0.349
GAAUUGGAUUUUCCUUUUCAAAAUGCACUUUGCUUUUUUUGUAUGUUUUGUUAUGUUGAGAUGUUUCUAAAGAAAAGAUUUUAUGUAAUUAUAAGAUGAAGCGUAGUGAA,0.998
CCCCACUCCCAGCCCCUUUUCCUCUAUGUGACAGCUCCCUAGGACCCCUCUGCCUUCCUCCCCAAUCCUGACUGGCUCCUAGGGAAGGGGAAGGCUCCUGGAGGGCAGCC,0.834
GCUCUGCAAAUAUCCCAAAGUUAUGCCUCUGAACACAUGUCUUCUAUAUGCAAGUUUUGUGAAACCUGCCUCCUUCCCGUGCAAUGUGUCCCUCCUCACAAGUGCUUAGU,1.19
GCGCGCUCUCUCUCUUUCUCUCUCUUUUCCUCUCUCUCCCUCUUUCUAGCCUGGGGCUUGAAUUUGCAUGUCUAAUUCAUUUACUCACCAUAUUUGAAUUGGCCUGAACA,3.47
AAACCAAAGACACCAAAUCUAGGUGAUCACUGAAGCAACGCAACCGCUUCCACCACCAUGGUGUUUGUUUCUAGAACUUUUGCCAGUCCUUGAAGAAUGGGUUCUGUGUC,0.347
ACAAUAUAGCACUGACUGAGUUGUAAAGCCUCCUGCCUGGAGACUUCAGUUAUAGCUGUAAUAAUUAAUCUUAUUUAUAAAAGCCACUCCACUAACCUUUUCUCUCCAAC,0.705
GAUUCUCUACCCUCUAUCAAUACUAAAAAUAGAUUAGGAGGGUUUUUUUUUCUGUUUAUCAUGUUGAAUUUCAUUGACUUAAUUAGUCUUUAAAUUUGAAAACAUGUUUU,0.69
UGUGGACUGUAUUUUGAUGCAACAACAAAGAAACUGUUCACUUUUCAAAUAAAAUGAUAUGUCAGAUUCAUUUUUGGUUCCUUGAAUACAUGUAAGAUGGGGAAAUAUGC,1.15
UCCUCUGUAGCUUGAGCUACCCCUCCCCUGCUGUAACUUACGUGACCUGUGCUGUCACUGGGCAUAGGACAGCGGCAUCACGGUUGCAUUCCCAUUGGACUCAUGCACCU,0.554
CUGCAAGUGGACAAAGGAACAAGCCCCCAGAAAAGAAAGGGAAGAACUGCCUUCUUAUACUACAGAACAUGCAUUAGUGUGGGCUAUAUAGCUGUGGCUCAUGCUACCCA,0.635
